Measurements gathered from unrelated publications.
Numbered parts are unrelated; each lists some results of a single study. ± marks the error that the study gave. No end group written: not given here.
Sequence of UniProt P08603 (whole entry, unmodified, looked up): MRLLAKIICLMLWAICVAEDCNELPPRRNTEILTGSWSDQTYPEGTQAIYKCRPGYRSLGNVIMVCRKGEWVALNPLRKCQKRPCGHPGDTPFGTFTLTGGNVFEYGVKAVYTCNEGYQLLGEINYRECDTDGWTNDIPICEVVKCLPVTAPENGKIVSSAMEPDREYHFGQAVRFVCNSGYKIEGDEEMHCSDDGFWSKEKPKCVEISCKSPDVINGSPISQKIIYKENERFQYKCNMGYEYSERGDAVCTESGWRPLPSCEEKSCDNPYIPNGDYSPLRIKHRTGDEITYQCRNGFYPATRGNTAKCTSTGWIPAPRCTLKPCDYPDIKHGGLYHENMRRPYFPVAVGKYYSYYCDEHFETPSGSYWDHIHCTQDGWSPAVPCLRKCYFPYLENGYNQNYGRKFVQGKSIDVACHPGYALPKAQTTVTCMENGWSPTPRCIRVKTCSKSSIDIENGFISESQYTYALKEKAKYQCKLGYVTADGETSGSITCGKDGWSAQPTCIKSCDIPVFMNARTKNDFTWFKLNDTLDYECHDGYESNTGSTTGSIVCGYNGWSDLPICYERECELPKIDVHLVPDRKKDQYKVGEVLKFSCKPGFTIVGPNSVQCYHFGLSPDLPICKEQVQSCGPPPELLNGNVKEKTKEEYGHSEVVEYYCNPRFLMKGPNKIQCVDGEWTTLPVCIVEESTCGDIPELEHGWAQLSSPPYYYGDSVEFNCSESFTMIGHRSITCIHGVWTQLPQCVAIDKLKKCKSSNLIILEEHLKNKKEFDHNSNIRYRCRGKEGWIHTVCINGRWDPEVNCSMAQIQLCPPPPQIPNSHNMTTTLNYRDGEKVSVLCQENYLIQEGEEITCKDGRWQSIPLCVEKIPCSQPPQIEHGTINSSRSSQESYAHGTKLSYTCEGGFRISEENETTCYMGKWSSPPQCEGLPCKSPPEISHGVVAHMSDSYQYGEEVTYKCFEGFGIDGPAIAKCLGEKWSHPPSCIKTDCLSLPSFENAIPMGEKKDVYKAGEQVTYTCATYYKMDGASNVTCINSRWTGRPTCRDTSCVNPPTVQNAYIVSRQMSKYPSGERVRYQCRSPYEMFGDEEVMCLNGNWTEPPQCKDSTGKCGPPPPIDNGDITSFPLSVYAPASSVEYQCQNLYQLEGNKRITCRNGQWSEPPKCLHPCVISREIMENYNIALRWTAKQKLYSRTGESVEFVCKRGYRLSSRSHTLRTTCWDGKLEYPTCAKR

Block 1
Form: peptide
Cells: tetramer-reactive CD8+ T cells
Host: unexposed HLA-B*07:02 subjects
`KRVDWTIEY` — result for “number of clonotypes”: 9.
`LATNNLVVM`: “number of clonotypes” 275.
`FASEAARVV` — result for “number of clonotypes”: 10.
`EIKESVQTF`: “number of clonotypes” 6.
For `EEFEPSTQYEY`, “number of clonotypes” read 8.

Single results of other studies
`ivermectin`: “viral protein levels (E1A, DBP, pV, pVI)” “decreased” (human adenovirus C5 wild type; Western blot; A549; 100 nM, 48 h post-infection).
`Cy5-CVWSLQNTLFM (Cy5-labelled; sequence looked up)` gave a liposome-bound peptide of 58.4% (membrane binding, co-sedimentation; peptide, POPC cholesterol liposomes; 40 µM, 10 min).
The ΔH of `cbpA fragment (Streptococcus pneumoniae)` is reported as -18.4 ± 2.6 kcal/mol (CFH 508-567 D542A (Homo sapiens, UniProt P08603); ITC).
For `ivermectin`, the IC50 was 6.6 ± 0.2 nM (Haemonchus contortus; larval migration; Weybridge susceptible L3; 20 min).
For `GTCTTTAATAATTAAACTAGTGTCTTGACAGATGTAAACAACAGGTATAAAC (dsDNA)`, binding read “binds” (niaR 1-174 Y108A (Streptococcus mutans, UniProt Q8DVX8); EMSA; double-stranded DNA, one strand shown).
